Measurements from different studies.
Numbered parts are unrelated; each lists some results of a single study.

Set 1 — technique: protein binding microarray; molecule type: double-stranded DNA, one strand shown; medium: in vitro; concentration: not given; relative to: not given; reading: higher = stronger binding
Target: Histone acetyltransferase KAT6A, both winged helices, GST fusion (KAT6A, Homo sapiens, UniProt Q92794, residues 1-181)
Setting: 8-mer, flanks averaged, mean of 2 arrays, mostly near background
Target sequence (chain): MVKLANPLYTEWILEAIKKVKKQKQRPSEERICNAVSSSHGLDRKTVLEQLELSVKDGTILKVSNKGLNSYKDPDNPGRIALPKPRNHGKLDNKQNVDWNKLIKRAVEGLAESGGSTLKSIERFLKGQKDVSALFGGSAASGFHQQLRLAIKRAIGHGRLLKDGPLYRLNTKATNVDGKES
| Oligonucleotide | E-score |
| --- | --- |
| AATGGGTA | -0.0762 |
| AAGCCAAC | 0.017 |
| AATGCAAG | -0.129 |
| CCCCATGC | 0.0213 |
| ACGCCCGT | 0.275 |
| TCTGTTCA | -0.00433 |
| CGCTAGTA | 0.185 |
| GACCAAGC | 0.053 |
| GACCCCTA | -0.213 |
| CATCTGGA | -0.0896 |
| ATTAACAC | -0.0516 |
| CCTGCACA | -0.227 |
| TAATTGAA | -0.0461 |
| AACGTATT | 0.0434 |
| TATACAGA | -0.104 |
| GAAATACA | -0.163 |
| AGGACTGA | -0.178 |
| ACCTCTCG | -0.0738 |
| GGCTACCA | -0.0845 |
| AAGAGCTC | -0.112 |
| ACATAGTC | 0.0306 |
| ATATGGGC | -0.0188 |
| AAGCGATC | 0.132 |
| AAGATAAT | -0.0549 |
| CTGTTTGC | 0.0172 |

Set 2 — technique: RNA Bind-n-Seq; molecule type: RNA; medium: in vitro; concentration: not given; relative to: input RNA pool; reading: higher = stronger binding
Target: RING finger protein unkempt homolog, zinc fingers 1-6, GST-SBP tag (UNK, Homo sapiens, UniProt Q9C0B0, residues 30-357)
UniProt Q9C0B0, sequence (30-357, looked up): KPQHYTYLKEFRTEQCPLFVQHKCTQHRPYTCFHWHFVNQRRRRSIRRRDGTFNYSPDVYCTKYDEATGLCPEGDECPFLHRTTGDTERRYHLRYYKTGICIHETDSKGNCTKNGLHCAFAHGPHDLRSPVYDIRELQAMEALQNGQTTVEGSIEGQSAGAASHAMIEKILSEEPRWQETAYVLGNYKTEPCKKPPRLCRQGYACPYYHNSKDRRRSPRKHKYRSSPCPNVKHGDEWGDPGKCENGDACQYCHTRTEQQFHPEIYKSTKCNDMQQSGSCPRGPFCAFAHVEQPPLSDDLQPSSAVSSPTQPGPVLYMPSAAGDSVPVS
Setting: RNA with constant flanks, human and mouse sites, ends assumed
| Oligonucleotide | bound/input enrichment |
| --- | --- |
| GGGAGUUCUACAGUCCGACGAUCCAGAUGAGGAAACUGAGGCCCAGAGAAGCGGAAAGGACUUCCCUAGACCUUACAGUAAAUUAGCAUUAAAUGCAGCCUUCCUACCUAGUGGGCACCUUGCUUACAAAAAUUUACCUAGGGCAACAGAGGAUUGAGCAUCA | 2.8 ratio |
| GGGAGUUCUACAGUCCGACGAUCUGCAUGCCUGUUCAAUUCUUUUGUUUCUUCUCCUUCCCCCUCCCCCUACCUCCUUCCCCUCACUCCUCCCCUCCUUCGCUCGCUCAACCUCUUUUGUUCAGUAUGUGUAACUUGAAGCUACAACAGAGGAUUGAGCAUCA | 1.32 ratio |
| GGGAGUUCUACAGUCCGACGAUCGGCUUUAAGUCUGUUGGGAAGCCAUAAGCCCUUGAUUCUGCAGCAUGAAAACCUAGAAACCAUAGUUGACUUUAUAAAAAGCACGCUACCCAACCUUGGCUUGGUACAGAUGGAAAAGACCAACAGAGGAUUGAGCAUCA | 1.61 ratio |
| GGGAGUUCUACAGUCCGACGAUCCCUGGCAACCGAGCCCCCGAUCCCACAGAGAGUCGAAGUCUUCAUAUUCAGCACCCAGGGUAUAGAUAGGUAGCCCUGCUGCCCUCCACGUGCAACACAUCAUACAUCACCCUCCUAGGUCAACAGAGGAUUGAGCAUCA | 0.276 ratio |
| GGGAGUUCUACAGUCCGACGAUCGCUGCCACUGCCGCAGCAGCCGAGCCCAAGUCUGAGGGCGUUGUGGCUAUGACUUUCAAGAUUUUUCUCCUUUUUGCAGGGCUUAUGGUUAAAGUUCCUGUGGGGUUAUAUUUUUCCUGCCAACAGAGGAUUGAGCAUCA | 0.167 ratio |
| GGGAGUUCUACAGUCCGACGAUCAUCUGUAAGCCUUUGGUGGAAGAUAAUGAAGAAGAAAGUUGUUAUAUUUUACAUUCAAGCAGUAAUGAAGACAAGACUGAAUUUUCAGGAACAAUUCAUGAUAUAAAUUCAUCUUUAAUACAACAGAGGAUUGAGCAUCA | 0.146 ratio |
| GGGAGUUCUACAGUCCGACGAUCUCUGCCACCCAGCAGAAGAAAAACACCAAACUCUCUAGCAAAACCACUGCUAAGUUAUCCACUAGUGCUAAAAGAAUUCAGAAGGAGCUAGCUGAAAUAACCCUUGAUCCUCCUCCUAAUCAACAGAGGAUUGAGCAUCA | 1.6 ratio |
| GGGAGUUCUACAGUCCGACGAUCUUUAUGAUAGUUUUGUUAGGUGACAGGACCAAAUGAAAAUAUUUUAUGUUUUCUCAUCACUUUAGAUUUUAUCAUUAUGUACAUUACUGGGUUUUUAGCAUUUCCUAAUGUGAAGUUUUACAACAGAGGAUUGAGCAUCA | 2.14 ratio |
| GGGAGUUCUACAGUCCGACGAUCGUGGGAGAUUUGGUUCUCAUCAUCCUAGAUGAGCGGCACGACAAUUAUGUAUUGUUUACUGUUAGUCCUACUUUAUAUUUUCUGCACUCAGAGUCUCUUCCUGCCCUGGAUCUCAAACCACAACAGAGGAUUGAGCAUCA | 0.721 ratio |
| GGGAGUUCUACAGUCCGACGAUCCUGAAUGAAGAUCUGGAGGUGAAAAUAGGGGAUUUUGGACUGGCAACCAAAGUCGAAUAUGACGGGGAGAGGAAGAAGACCCUGUGUGGGACUCCUAAUUACAUAGCUCCCGAGGUGCUGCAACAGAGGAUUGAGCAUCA | 0.295 ratio |
| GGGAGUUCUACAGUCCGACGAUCUGUGCAUUAUUAAAAUGUUCUAAGUGAAGCUAAUUGUCAAGUUUAUUAAAGAGGAUUGCUUUGUGCCCCCUACCUAGUGUGUAAAAUAAAGUCAGAUCAUUACAAUCUUAACUGUGGUACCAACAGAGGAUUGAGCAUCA | 4.79 ratio |

Set 3 — technique: protein-binding microarray; molecule type: double-stranded DNA, one strand shown; medium: in vitro; concentration: 250 nM; setting: 60-bp whole probe; added: salmon DNA 0.4 mg/ml; relative to: random background probes; reading: higher = stronger binding; all sequences stand within: GCCTAGCAC … GTCTTGATTCGCTTGACGCTGCTG
Target: Interferon regulatory factor 7, full length, phosphomimetic (IRF7, Homo sapiens, UniProt Q92985, residues 1-503, S101K/S471D/S472D/S475D/S476D/S477D/S483D/S484D/S487D)
UniProt Q92985, sequence (whole entry, unmodified, looked up): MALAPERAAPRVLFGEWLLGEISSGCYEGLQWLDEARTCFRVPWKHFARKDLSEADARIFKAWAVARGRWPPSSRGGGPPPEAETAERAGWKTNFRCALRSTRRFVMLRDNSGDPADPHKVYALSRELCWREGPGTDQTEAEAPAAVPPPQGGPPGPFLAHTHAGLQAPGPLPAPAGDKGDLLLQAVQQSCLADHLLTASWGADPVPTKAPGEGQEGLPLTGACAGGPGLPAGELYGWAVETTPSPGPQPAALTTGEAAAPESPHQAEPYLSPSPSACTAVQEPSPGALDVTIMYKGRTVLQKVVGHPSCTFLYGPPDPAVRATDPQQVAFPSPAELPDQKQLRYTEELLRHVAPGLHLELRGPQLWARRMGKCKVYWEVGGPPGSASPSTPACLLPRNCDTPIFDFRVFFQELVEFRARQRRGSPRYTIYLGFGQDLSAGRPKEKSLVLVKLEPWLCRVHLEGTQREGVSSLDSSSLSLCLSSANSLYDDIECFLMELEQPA
| Oligonucleotide | log fluorescence |
| --- | --- |
| TTCGGTTTCGGACTGGGTTAGTGCTAG | 4.82 z-score |
| TCATTTATGCACTCTCTAACTGTGCTA | 0.885 z-score |
| TTACATTTCAGTTTCGATTAGTGCTAG | 9.24 z-score |
| TTTTTTTTTTTTTTTTTTACGTGCTAG | 0.489 z-score |
| CCCATGCTGGATGAAGTACAGTGCTAG | -0.342 z-score |
| GACGATATCAGACTCGAGACGTGCTAG | 0.357 z-score |
| TTAGAACTTAGTCTCGATTAGTGCTAG | 2.08 z-score |
| GGCGGTTCCGGTTTCGGGACGTGCTAG | 6.87 z-score |
| TTACATATCAGTATCGATTAGTGCTAG | 1.15 z-score |
| TCATATCTGTGTTATTAAACTGTGCTA | 0.845 z-score |
| GACGGACTGGACACTGAGGACGTGCTA | -0.791 z-score |
| AAGGGTCTCTTGTTCTCTCTGTGCTAG | 0.223 z-score |
| TTAGAACTAGGGTTTCGATTAGTGCTA | 6.51 z-score |
| TAAGATTTCGGGACTGGATTAGTGCTA | 0.63 z-score |
| GGGCCACAAAGCAATAAGAAGTGCTAG | -0.32 z-score |
| TTAGCACTGGGTATCGGTTAGTGCTAG | 0.57 z-score |
| TTAGAACTGGGGTATCCATTAGTGCTA | -0.525 z-score |
| TCATATTTTTTTCTAATACTGTGCTAG | 1.2 z-score |
| GTCGGACTGGACACTGGGGACGTGCTA | -0.593 z-score |
| GACGGTTCCCTTTTTCTGACGTGCTAG | 2.3 z-score |
| TTAGGTCTCGGTTTCGGTCAGTGCTAG | 7.6 z-score |
| GACGGACTGCTTTTCCTCACGTGCTAG | 0.45 z-score |
| TTAGGTTTCGATACTGGGTTAGTGCTA | 8.74 z-score |
| ATAGGTATCGGTTTCGGTTAGTGCTAG | 10.6 z-score |
| ATAGAACTGGGGACTGGATTAGTGCTA | -0.431 z-score |

Set 4 — technique: RNA Bind-n-Seq; molecule type: RNA; medium: in vitro; concentration: 200 nM; setting: whole 134-nt RNA, ends assumed; added: 150 mM KCl; relative to: input library; reading: higher = stronger binding
Target: Ras GTPase-activating protein-binding protein 1, full length (G3BP1, Homo sapiens, UniProt Q13283)
UniProt Q13283, sequence (whole entry, looked up): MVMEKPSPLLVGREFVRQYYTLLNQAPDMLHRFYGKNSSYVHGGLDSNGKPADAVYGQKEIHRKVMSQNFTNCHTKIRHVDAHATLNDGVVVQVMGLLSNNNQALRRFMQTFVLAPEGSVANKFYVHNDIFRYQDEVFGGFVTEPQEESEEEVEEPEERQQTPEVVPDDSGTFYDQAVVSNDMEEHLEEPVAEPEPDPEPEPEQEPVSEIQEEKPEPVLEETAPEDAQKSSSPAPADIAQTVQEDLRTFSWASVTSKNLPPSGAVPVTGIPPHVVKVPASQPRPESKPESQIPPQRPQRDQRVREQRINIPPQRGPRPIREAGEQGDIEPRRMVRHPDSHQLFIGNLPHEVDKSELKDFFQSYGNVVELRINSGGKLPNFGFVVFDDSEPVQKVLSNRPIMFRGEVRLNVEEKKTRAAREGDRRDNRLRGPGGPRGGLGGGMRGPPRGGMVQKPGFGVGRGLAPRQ
| Oligonucleotide | log2 enrichment |
| --- | --- |
| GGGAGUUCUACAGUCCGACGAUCUGGGAGGUGGAUUUUGUUUAUUUUUUUAGCUCAUUUCCAGGGGUGGGAAUUUUUUUUUAAUAUGUGUCAUGAAUAAAGUUUUUUUUGAAAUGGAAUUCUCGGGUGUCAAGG | 0.173 |
| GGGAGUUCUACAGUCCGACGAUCUCCUCAAGUCCUGUGCUACACAUCGUAUGUACCGAAUCGGAGGAGGGGAGGAAAGUAUUAUGUUACGCCGUUCGGAUCUGCACUUCCAGCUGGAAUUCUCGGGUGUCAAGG | -0.469 |
| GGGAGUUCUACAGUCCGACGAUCUGUGCUACACAUCGUAUGUACCGAAUCGGGGCCCCCCCGGGGCCCCCCCGGGGCCCCCCCGGGAAAGUAUUAUGUUACGCCGUUCGGAUCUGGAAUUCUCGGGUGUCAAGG | -1.23 |
| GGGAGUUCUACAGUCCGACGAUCGUCCUGUGCUACACAUCGUAUGUACCGAAUCGGGUUUUUGGGGUUUUUGGGUUUUUGGAAAGUAUUAUGUUACGCCGUUCGGAUCUGCACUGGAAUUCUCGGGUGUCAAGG | -0.462 |
| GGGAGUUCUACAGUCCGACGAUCAAGUCCUGUGCUACACAUCGUAUGUACCGAAUCGGGAGGGUUUUUGGGAAAAAGGGAAAGUAUUAUGUUACGCCGUUCGGAUCUGCACUUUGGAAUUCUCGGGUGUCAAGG | -0.113 |
| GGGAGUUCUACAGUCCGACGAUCCAAGUCCUGUGCUACACAUCGUAUGUACCGAAUCGGGAAAGGGUUUGGGAAAGGGAAAGUAUUAUGUUACGCCGUUCGGAUCUGCACUUCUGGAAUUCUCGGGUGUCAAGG | 0.612 |
| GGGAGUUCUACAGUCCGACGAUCUAACUUUAGAGGAGGAUCUGAUGGAUAUGGCAGUGGACGUGGAUUUGGGGAUGGCUAUAAUGGGUACGGAGGAGGACCUGGAGGUGGCAAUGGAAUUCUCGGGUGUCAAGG | 0.213 |
| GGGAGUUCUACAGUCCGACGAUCACCAUGCAGGUGGGCAUCUUUGGGAAGUGGGGCAAGGGGGGGAUAGGGAGGGGGGUAACACUUUGGGAACAGAAAGUCCCAGGUCGUUUCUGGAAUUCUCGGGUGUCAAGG | 0.929 |
| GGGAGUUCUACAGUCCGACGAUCACCAUGCAGGUGGGCAUCUUUGGGAAGUGGGGCAAGGGGGGGAUAGGGAGGGGGCUAACACUUUGGGAACAGGUGGUCCCAGGUCGUUUCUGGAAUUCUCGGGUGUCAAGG | 1.37 |
| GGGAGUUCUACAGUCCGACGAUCCACAGACAACACGCACCCACACAGACACAGAGGGAAGGGGUUGGGAUGGGGACAAAGUGCACAGCAGGGCGGGGUAGGACCCCAGCCCCUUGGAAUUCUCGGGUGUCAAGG | 1.78 |
| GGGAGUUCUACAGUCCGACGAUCCAAGUCCUGUGCUACACAUCGUAUGUACCGAAUCGGGAAAGGGAAAGGGUUUGGGAAAGUAUUAUGUUACGCCGUUCGGAUCUGCACUUCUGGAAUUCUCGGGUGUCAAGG | 0.474 |
| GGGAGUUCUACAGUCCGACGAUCUGGGAGGUGGAUUUUGUUUAUUUUUUUAGCUCAUUUCCAGGGGUGGGAAUUUUUUUUUAAUAUGUGUCAUGAAUAAUGUUGUUUUUGAAAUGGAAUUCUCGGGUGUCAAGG | 0.16 |
| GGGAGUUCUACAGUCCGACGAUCGUCCUGUGCUACACAUCGUAUGUACCGAAUCGGGGAAAGGGGAGGGGUUUUUUUGGGGAAAGUAUUAUGUUACGCCGUUCGGAUCUGCACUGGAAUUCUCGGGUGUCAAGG | 0.32 |
| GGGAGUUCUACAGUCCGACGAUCCACAGACAACACGCACCCACACAGACACUGAGGGAAGGGGUUGGGAUGGGGACAGGGUGCACAGCAGGGCGGGGUAGGACCCCAGCCCCUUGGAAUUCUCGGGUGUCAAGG | 1.76 |

Repeated from above (set 1):
| Oligonucleotide | E-score |
| --- | --- |
| ACGCCCGT | 0.275 |
| AAGATAAT | -0.0549 |
| GAAATACA | -0.163 |
| AAGCCAAC | 0.017 |
| GACCAAGC | 0.053 |
| AAGCGATC | 0.132 |
| ACATAGTC | 0.0306 |
| AGGACTGA | -0.178 |
| CGCTAGTA | 0.185 |
| CTGTTTGC | 0.0172 |
| TATACAGA | -0.104 |
| ACCTCTCG | -0.0738 |
